Measurements gathered from unrelated publications.
Lines come from different studies, so protocols differ.
Target: Amine oxidase [flavin-containing] B (MAOB, Homo sapiens, UniProt P27338)
UniProt P27338, sequence (whole entry, looked up): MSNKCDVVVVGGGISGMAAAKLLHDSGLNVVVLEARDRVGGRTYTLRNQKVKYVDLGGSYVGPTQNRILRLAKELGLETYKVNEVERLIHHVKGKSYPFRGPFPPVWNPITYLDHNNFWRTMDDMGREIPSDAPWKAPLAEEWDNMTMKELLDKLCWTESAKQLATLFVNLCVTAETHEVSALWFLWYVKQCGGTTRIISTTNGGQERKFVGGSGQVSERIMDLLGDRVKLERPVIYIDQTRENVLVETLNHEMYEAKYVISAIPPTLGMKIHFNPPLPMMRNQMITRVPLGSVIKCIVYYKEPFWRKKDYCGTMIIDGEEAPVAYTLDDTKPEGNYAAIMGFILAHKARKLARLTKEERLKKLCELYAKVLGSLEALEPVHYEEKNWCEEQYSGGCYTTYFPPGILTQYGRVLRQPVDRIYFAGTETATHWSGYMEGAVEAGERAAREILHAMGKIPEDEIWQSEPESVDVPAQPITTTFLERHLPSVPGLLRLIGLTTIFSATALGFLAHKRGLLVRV
Observed: enzyme activity
Mode: inhibitor
Concentration: 10 µM

Structure (SMILES) = NC(=O)N/N=C/c1cccc(OCc2ccccc2)c1; technique = absorbance; remaining activity = 33%
Structure (SMILES) = O=C(/C=C/c1ccc(Br)cc1)c1cc2ccccc2oc1=O; remaining activity = 31.6%
Structure (SMILES) = CNC(=S)N/N=C/c1cccc(OCc2ccccc2)c1; technique = absorbance; remaining activity = 39.6%
Structure (SMILES) = O=C1c2cc(F)ccc2NC12CCCC2; remaining activity = 67.8%
Structure (SMILES) = O=C(/C=C/c1ccccc1Br)c1cc2ccccc2oc1=O; remaining activity = 69.6%
Structure (SMILES) = NC(=S)N/N=C/c1cccc(OCc2ccccc2)c1; technique = absorbance; remaining activity = 13.6%
Structure (SMILES) = O=C(/C=C/c1ccc(Cl)cc1)c1cc2ccccc2oc1=O; remaining activity = 60.1%
Structure (SMILES) = COc1ccc(/C=C/C(=O)c2ccc(N3CCNCC3)cc2)cc1; remaining activity = 15%
Structure (SMILES) = O=C1c2cc(Cl)ccc2NC12CCCC2; remaining activity = 78%
Structure (SMILES) = O=C(/C=C/c1ccc(Cl)cc1)c1ccc(N2CCNCC2)cc1; remaining activity = 11.6%
Structure (SMILES) = O=C1c2cc(Br)ccc2NC12CCCC2; remaining activity = 67%
Structure (SMILES) = O=C(/C=C/c1cccc(Br)c1)c1cc2ccccc2oc1=O; remaining activity = 95.6%
Structure (SMILES) = CNC(=S)N/N=C/c1ccccc1OCc1ccccc1; technique = absorbance; remaining activity = 24.7%
Structure (SMILES) = O=C(/C=C/c1ccc([N+](=O)[O-])cc1)c1ccc(N2CCNCC2)cc1; remaining activity = 35.1%
Structure (SMILES) = S=C(N/N=C/c1cccc(OCc2ccccc2)c1)Nc1ccccc1; technique = absorbance; remaining activity = -0.86%
Structure (SMILES) = N#Cc1ccc(CN2c3ccccc3C(=O)C23CCCC3)cc1; remaining activity = 2.19%
Structure (SMILES) = Cc1ccc(/C=C/C(=O)c2ccc(N3CCNCC3)cc2)cc1; remaining activity = 29.5%
Structure (SMILES) = NC(=S)N/N=C/c1ccccc1OCc1ccccc1; technique = absorbance; remaining activity = 46.6%
Structure (SMILES) = CCc1ccc(/C=C/C(=O)c2ccc(N3CCNCC3)cc2)cc1; remaining activity = 27.3%
Structure (SMILES) = O=C1c2cc(Cl)ccc2N(Cc2ccccc2)C12CCCC2; remaining activity = 29%

Excerpt of the above:
Structure (SMILES) = O=C(/C=C/c1ccc([N+](=O)[O-])cc1)c1ccc(N2CCNCC2)cc1; remaining activity = 35.1%
Structure (SMILES) = NC(=S)N/N=C/c1ccccc1OCc1ccccc1; technique = absorbance; remaining activity = 46.6%
